Measurements gathered from unrelated publications.
Lines come from different studies, so protocols differ. ± gives the spread as reported. Values after ≈ are worked out from the molar mass of the structure shown.

`COc1cc(Nc2ncc(F)c(Nc3ccc4c(n3)NC(=O)C(C)(C)O4)n2)cc(OC)c1OC` has a solubility of 5.6 µM (≈ 2.63 µg/mL) (HEPES buffer; 3 h, pH 7.4, 1% DMSO).
`Cn1cc(-c2nc(N[C@@H]3CCCC[C@@H]3N)c(F)c3c2C(=O)NC3)cn1`: “hemorrhagic adverse events” 11% (item: subdural haematoma; patients with relapsed or refractory AML; oral, 160 mg once daily).
For `C[C@]1(O)C[C@@](N)(c2ccc(-c3nc4n(c3-c3ccccc3)COc3ccncc3-4)cc2)C1`, “patients with grade ≥3 Stomatitis TEAE” read 11.8% (human, advanced or metastatic solid tumours; dose not given, all patients).
For `COc1ccc(CCC2CCCC(CCc3ccc(OC)cc3)N2C[C@@H](O)CO)cc1.Cl` (stereo in doubt), the APD90 change was 19.4 ± 1.8% (rabbit Purkinje fibres; 0.1 µM, cycle length 0.5 s; reference: baseline).
The logD of `c1ccc(CCc2nnn[nH]2)cc1` is reported as -0.22 (pH 7.4, second measurement).
`Clc1ccc(-c2ccccc2)cc1` gave a serum Calcium of 10 ± 0.6 mg/dL (rat Sprague-Dawley female, serum; inhalation, 35 µg/rat, 24 h).
`COc1cc2c(cc1OC)CN(CCc1ccc(NC(=O)c3cccc4c(=O)c5cccc(OC)c5[nH]c34)cc1)CC2` — result for “drug loss on filter”: < 1% (0.22 µm nylon filter).
Under “grade 3 Hyperuricemia”, `COc1cc2c(Oc3ccc4[nH]c(C)cc4c3F)ccnc2cc1OCC1(N)CC1` is recorded as 0% (paediatric recurrent refractory sarcoma; 10 mg).
The organ weight of `O=C(O)CCCOc1ccc(F)cc1-c1cc(-c2ccccc2C(F)(F)F)n(-c2ccccc2)n1` is reported as 70 ± 10.9 mg (item: adrenals; Crl:CD(SD) rats, male; iv, 25 µg/kg, 14 days).
Under “patients with cough”, `O=C1Nc2cc3[nH]nc(-c4ccncc4)c3cc2CN1Cc1ccccc1` is recorded as 20% (CTCAE v4.03; advanced solid tumour patients; intravenous, 7.2 mg/kg, schedules 1/2).
`COc1ccc(-c2c(-c3ccc(C#N)c(F)c3)nc(N3CCC(N)CC3)n(C)c2=O)cc1F`: “treatment-related adverse event incidence” 0% (item: Diarrhea; human patients; oral, dose not given, grade 3 to 4, dose escalation, NG).
For `Nc1nc2cc(-c3ccc4ncc(C(=O)N5CCOCC5)n4c3)ccc2o1`, “patients with adverse events” read 3% (all-cause decreased appetite, grade ≥3; patients with advanced solid tumours; dose not given).
`CO[C@H]1C[C@@H]2CC[C@@H](C)[C@@](O)(O2)C(=O)C(=O)N2CCCC[C@H]2C(=O)O[C@H]([C@H](C)C[C@@H]2CC[C@@H](OC(=O)NCCOCCOCCOCCOCCOCCOCCOCCOCCC(=O)N3CCc4cc(Cn5nc(-c6ccc7oc(N)nc7c6)c6c(N)ncnc65)ccc4C3)[C@H](OC)C2)C[C@@H](O)[C@H](C)/C=C(\C)[C@@H](O)[C@@H](OC)C(=O)[C@H](C)C[C@H](C)/C=C/C=C/C=C/1C` — result for “incidence of Vomiting TEAE”: 33.3% (patients with advanced solid tumours; intravenous, dose not given, any grade).
For `NCCCC[C@@H]1NC(=O)[C@@H](Cc2c[nH]c3ccccc23)NC(=O)[C@H](c2ccccc2)NC(=O)[C@@H]2C[C@@H](OC(=O)NCCN)CN2C(=O)[C@H](Cc2ccccc2)NC(=O)[C@H](Cc2ccc(OCc3ccccc3)cc2)NC1=O`, “QTcI change from baseline” read 3.1 ms (healthy volunteers; subcutaneous, 1950 µg twice daily, day 5, 12.00 h).
`CC(C)(O)c1cc(Nc2cc(Oc3cn(C4CC4)nc3C3CCOCC3)ccn2)ccn1`: “treatment-emergent adverse events” 0% (item: Pyrexia; Japanese patients with advanced cancer; oral, dose not given, any grade).
The kinetic solubility of `CCOC(=O)C(CC)(CCCSCCOCCOCCNc1ccc([N+](=O)[O-])c2nonc12)NC(=O)c1ccc(C2CC2)c(Cc2ccc(F)cc2)n1` (racemic) is reported as 9 µg/mL (≈ 12 µM) (aqueous buffer with DMSO).
With `N=C(CC(O)c1cc2c(F)cc(F)cc2c2cc(C(F)(F)F)ccc12)Nc1ccc(Br)cc1` (centres unmarked) the blood-to-plasma ratio was 0.93 ± 0.06 (human blood; 2.5 ng/mL, 30 min).
`CCc1ccc(CC/C=C/c2ccc3c(c2)C(=O)CC3)cc1` has a hematocrit of 44.8% (Sprague-Dawley rat, female, blood; oral, 30 mg/kg/day, 14 days).
The Cmax of `C[C@]1(CO)Cc2ncn(-c3ccc(C#N)c(Cl)c3)c2C(=O)O1` is reported as 1.42 µM (human, plasma; 40 mg, first dose fasted).
`C[C@@H](NC(=O)N1C(=O)[C@H](Cc2ccnc(N)c2)[C@H]1C(=O)O)C1CCCCC1` — result for “incidence of injection site erythema swelling”: 12.5% (healthy adult Chinese volunteers; continuous intravenous infusion, 1.0 mg/kg/h, 5-day infusion, CTCAE 5.0 grading).
`COc1ccc2nc3cc(Cl)ccc3c(Nc3cc(CN4CCCC4)c(O)c(CN4CCCC4)c3)c2n1` gave an ALT activity of 0.22 U/L (mouse, blood; intraperitoneal, 28 mg/kg).
`CC(=O)c1c(C)c2cnc(Nc3ccc(C4CCN(CCS(C)(=O)=O)CC4)cn3)nc2n(C2CCCC2)c1=O` has a clearance of 1660 mL/min (human, plasma; oral, 75 mg twice daily, day 21, multiple doses, together with: letrozole).
The dose-limiting toxicity of `N[C@@H]1c2ccccc2OC12CCN(c1cnc3c(N4CCCc5ncccc54)n[nH]c3n1)CC2` is reported as 0% (advanced metastatic solid tumour patients; oral, 20 mg once daily, cycle 1, 21 days).
The drug concentration of `COc1ncccc1-c1cnn2ccc(N3CCN(C(=O)OC(C)C)CC3)nc12` is reported as 8.5 µM (rat, thermal hyperalgesia model, brain; oral, 30 mg/kg, 180 min).
For `O=c1ccc2ccc3occc3c2o1`, the accuracy was 92% (rat plasma; 8 ng/mL, 2 weeks, -70 °C, post-preparative stability).
`CCCCN1CCC(COC(=O)c2ccc(N)c(O[11CH3])c2)CC1`: “time to peak radioactivity” 5 min (PET; rhesus monkey, whole brain; dose not given, average).
`C=CC(=O)N1CC[C@H](n2nc(C#Cc3cc(OC)cc(OC)c3)c3c(N)ncnc32)C1` gave a TEAE incidence of 0% (item: abdominal pain; healthy adults; oral, grade ≥3, pooled treatments).
`O=C(Nc1ccccc1)C1CCN(C(=O)Oc2cccnc2)CC1`: “subjects with adverse event” 14.3% (item: reproductive and breast disorders; healthy women; oral, 20 mg, 7 days).
For `CC(C)=CC1C(C(=O)OC(C#N)c2cccc(Oc3ccccc3)c2)C1(C)C` (centres unmarked), “enzyme contribution to clearance” read 0.26% (item: CYP3A5; human, age 6 months).
Under “platelet distribution width”, `CC(C)[C@@H]1NC(=O)CNC(=O)[C@H](CC(N)=O)NC(=O)[C@H](CCCNC(=N)N)NC(=O)[C@H](Cc2ccc(O)cc2)NC(=O)[C@H](C(C)C)NC(=O)[C@@H](NC(=O)[C@@H](NC(=O)[C@H](CC(N)=O)NC(=O)[C@H](Cc2c[nH]c3ccccc23)NC(=O)[C@H](C)NC(=O)[C@H](Cc2ccccc2)NC(=O)CN)C(C)C)CSSC[C@@H](C(=O)N[C@@H](Cc2cnc[nH]2)C(=O)N[C@@H](CCCNC(=N)N)C(=O)N[C@@H](CCCNC(=N)N)C(=O)N[C@@H](C)C(=O)N[C@@H](CC(N)=O)C(N)=O)NC(=O)[C@H](C(C)C)NC(=O)[C@H](CCCNC(=N)N)NC1=O` is recorded as 15.9 ± 0.57% (ICR mice, blood; intraductal mammary, 5 mg/kg, day 5).
Under “standardized uptake value”, `CC(C)NCCCC[C@@H]1NC(=O)[C@H](Cc2ccc(O)cc2)NC(=O)[C@H](Cc2ccccc2)NC(=O)CC[C@H](C(=O)N[C@@H](CCCCNC(C)C)C(=O)N[C@@H](CCCCNC(=O)[C@H](CCC(=O)O)NC(=O)[C@H](CCC(=O)O)NC(=O)[C@H](CCC(=O)O)NC(=O)CN2CCN(CC(=O)O)CCN(CC(=O)O)CC2)C(N)=O)NC(=O)CNC(=O)[C@H](Cc2ccc3ccccc3c2)NC(=O)[C@@H](CCCNC(=N)N)NC1=O` [fluorine-18 labelled] is recorded as 1.95 ± 0.11 SUV (PET/CT; female CB17 SCID beige mice, subcutaneous MM.1S xenograft, tumour; intravenous).
`[O-][S+]1CCc2nc(N3CCC(c4ncc(Cl)cn4)CC3)nc(NC3(CO)CCC3)c21` (centres unmarked) — result for “Flatulence adverse events”: 30% (idiopathic pulmonary fibrosis patients; 18 mg twice daily).
